Measured values gathered from unrelated publications.
Lines come from different studies, so protocols differ. Several values in a cell are separate wells, animals, samples, runs or records. ± gives the spread as reported.
Chain of UniProt Q13148 (whole entry, looked up): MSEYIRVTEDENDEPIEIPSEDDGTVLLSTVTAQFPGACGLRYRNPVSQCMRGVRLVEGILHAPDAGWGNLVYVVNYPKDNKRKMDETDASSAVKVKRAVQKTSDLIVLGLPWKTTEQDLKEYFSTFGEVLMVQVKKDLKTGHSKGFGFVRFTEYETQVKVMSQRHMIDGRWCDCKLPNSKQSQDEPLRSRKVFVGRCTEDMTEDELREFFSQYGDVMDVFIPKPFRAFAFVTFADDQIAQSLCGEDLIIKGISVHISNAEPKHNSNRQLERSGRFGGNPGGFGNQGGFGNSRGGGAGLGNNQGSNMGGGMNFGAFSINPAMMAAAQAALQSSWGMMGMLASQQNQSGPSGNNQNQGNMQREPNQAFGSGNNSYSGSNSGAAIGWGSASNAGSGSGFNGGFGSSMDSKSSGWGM
Chain of UniProt Q9P2K8 (whole entry, unmodified, looked up): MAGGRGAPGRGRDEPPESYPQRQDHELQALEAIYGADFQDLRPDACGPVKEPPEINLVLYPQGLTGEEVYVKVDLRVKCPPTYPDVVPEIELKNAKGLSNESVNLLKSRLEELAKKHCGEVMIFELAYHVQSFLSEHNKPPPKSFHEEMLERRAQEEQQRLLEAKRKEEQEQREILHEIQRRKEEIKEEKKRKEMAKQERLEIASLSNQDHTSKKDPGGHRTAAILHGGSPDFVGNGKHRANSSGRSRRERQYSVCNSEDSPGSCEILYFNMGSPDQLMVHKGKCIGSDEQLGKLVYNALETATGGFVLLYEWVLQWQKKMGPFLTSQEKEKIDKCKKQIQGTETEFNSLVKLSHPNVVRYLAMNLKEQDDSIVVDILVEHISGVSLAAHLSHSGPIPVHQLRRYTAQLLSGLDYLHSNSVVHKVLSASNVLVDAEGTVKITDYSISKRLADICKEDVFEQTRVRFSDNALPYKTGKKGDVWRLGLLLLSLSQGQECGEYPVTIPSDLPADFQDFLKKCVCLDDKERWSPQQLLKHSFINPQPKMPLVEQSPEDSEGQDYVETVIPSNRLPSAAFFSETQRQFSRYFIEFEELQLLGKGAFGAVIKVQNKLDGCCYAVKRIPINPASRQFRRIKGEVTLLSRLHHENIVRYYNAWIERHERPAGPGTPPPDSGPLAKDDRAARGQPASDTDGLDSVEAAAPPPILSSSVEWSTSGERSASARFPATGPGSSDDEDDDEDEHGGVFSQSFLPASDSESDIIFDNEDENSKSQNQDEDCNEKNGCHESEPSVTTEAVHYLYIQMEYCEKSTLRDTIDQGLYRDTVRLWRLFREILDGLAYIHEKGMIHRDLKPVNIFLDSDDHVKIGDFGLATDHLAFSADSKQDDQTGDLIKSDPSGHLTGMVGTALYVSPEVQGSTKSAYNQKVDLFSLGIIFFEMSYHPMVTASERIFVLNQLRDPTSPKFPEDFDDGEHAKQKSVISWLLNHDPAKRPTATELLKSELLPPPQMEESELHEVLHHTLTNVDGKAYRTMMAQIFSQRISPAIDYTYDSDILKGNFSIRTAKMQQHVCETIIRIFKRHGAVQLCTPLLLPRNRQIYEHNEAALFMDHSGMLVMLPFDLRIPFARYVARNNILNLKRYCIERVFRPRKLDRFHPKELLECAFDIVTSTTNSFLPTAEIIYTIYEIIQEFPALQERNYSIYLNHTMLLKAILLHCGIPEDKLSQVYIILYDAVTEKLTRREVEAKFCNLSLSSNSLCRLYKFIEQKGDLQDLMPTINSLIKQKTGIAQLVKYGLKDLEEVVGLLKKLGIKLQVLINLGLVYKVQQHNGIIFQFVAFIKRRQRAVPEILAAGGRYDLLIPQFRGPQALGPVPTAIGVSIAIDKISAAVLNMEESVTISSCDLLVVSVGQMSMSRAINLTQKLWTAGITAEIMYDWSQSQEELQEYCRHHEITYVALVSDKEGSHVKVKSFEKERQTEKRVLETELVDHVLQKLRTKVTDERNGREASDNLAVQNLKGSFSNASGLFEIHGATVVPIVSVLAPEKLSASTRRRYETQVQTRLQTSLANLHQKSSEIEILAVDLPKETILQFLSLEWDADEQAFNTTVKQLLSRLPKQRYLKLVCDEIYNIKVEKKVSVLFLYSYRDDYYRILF
Chain of UniProt Q6V1X1 (whole entry, looked up): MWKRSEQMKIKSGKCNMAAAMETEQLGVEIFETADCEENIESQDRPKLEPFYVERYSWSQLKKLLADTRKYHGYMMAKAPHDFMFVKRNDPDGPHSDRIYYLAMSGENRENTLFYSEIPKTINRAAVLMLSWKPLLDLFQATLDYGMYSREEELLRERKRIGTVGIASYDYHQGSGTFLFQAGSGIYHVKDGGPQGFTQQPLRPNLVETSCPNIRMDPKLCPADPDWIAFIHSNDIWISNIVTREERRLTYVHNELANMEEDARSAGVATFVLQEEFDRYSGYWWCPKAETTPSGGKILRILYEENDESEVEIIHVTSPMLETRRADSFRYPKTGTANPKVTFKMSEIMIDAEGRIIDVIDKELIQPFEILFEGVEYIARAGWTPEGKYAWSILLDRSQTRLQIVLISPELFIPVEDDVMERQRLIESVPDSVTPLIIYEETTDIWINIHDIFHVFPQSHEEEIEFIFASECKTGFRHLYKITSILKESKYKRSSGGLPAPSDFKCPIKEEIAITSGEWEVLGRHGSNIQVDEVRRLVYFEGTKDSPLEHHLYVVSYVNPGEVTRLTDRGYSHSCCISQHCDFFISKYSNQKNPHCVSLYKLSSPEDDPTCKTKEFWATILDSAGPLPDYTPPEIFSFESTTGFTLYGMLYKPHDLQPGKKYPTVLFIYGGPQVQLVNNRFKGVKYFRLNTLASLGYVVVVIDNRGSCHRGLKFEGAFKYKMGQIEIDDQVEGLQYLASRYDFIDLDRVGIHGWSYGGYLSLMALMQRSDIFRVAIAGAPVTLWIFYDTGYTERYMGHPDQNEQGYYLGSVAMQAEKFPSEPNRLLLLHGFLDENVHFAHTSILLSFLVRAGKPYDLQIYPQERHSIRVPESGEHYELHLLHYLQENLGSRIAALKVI
Chain of UniProt P25021 (whole entry, looked up): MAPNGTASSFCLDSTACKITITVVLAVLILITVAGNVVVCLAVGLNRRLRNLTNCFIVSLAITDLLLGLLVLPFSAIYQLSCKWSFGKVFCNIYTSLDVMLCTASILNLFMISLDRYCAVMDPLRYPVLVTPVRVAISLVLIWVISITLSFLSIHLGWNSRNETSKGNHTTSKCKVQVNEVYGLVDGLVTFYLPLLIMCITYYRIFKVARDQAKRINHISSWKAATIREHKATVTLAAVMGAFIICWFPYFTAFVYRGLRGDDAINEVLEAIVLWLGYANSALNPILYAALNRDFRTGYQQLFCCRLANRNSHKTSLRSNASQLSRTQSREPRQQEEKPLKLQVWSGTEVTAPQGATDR
Chain of UniProt Q15059 (whole entry, unmodified, looked up): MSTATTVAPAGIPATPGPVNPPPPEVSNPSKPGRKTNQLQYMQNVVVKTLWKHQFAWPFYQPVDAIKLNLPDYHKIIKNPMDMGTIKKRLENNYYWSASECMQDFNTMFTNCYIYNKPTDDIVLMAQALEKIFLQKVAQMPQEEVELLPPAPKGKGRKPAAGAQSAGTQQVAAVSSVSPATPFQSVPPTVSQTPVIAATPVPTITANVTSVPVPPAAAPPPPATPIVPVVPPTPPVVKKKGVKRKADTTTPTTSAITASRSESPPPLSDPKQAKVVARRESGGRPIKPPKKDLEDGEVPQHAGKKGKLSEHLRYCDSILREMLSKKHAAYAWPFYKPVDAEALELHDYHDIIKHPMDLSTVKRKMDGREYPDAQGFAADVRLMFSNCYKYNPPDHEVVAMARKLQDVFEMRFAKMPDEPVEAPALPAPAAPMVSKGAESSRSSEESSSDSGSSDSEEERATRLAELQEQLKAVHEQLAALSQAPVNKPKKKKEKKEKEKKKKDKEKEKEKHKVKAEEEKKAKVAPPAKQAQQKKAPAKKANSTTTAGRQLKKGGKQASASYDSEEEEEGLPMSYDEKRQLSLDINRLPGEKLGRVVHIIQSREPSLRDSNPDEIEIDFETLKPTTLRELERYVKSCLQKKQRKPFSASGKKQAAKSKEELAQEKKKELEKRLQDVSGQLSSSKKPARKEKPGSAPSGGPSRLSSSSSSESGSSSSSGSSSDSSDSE
Chain of UniProt Q9BT09 (whole entry, looked up): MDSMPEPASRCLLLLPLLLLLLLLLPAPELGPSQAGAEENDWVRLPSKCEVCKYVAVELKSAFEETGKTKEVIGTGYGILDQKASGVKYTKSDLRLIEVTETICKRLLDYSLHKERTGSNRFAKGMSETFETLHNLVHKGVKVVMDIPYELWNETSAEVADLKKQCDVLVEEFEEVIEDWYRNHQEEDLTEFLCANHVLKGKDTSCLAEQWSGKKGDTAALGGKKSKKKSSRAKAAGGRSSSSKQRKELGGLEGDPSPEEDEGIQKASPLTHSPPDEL
Chain of UniProt P47936 (whole entry, looked up): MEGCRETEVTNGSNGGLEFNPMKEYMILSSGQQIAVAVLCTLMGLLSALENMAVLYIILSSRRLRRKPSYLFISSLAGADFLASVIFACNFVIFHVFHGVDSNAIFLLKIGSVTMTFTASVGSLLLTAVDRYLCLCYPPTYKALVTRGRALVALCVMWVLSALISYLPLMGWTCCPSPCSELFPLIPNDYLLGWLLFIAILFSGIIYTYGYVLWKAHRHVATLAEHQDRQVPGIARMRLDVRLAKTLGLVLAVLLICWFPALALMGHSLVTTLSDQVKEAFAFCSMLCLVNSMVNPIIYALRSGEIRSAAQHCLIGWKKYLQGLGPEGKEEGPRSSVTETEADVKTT
Chain of UniProt Q92847 (whole entry, looked up): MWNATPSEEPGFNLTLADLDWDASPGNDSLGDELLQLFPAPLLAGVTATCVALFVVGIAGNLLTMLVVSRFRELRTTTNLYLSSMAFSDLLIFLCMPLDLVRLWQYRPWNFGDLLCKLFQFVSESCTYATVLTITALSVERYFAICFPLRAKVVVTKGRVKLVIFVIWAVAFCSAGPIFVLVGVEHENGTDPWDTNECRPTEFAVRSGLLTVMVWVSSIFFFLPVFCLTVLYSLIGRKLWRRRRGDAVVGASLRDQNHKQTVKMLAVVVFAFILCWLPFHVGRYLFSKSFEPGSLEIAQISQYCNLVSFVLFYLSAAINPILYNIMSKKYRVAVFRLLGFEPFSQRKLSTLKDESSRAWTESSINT

Structure (SMILES) | target | test | test system | setting | how to read | endpoint | result
CCCCCC=CC=C1C(=O)C=CC1CC=CCCCC(=O)O (stereo not shown) | Protein canopy homolog 3 (Homo sapiens, UniProt Q9BT09) | competitive isoTOP-ABPP | proteome, soluble, MDA-MB-231 | 100 µM, 60 min, with: iodoacetamide probe | relative to: DMSO over compound-treated, higher = stronger cysteine blockade | isoTOP-ABPP competition ratio | 12
COC(=O)CN1CCCc2cc3cc(C(=O)NC(Cc4cccc(Cl)c4)C(=O)NCC=CS(=O)(=O)c4ccccc4)c(=O)oc3cc21 (stereo not shown) | Rhodesain (rhodesain, Trypanosoma brucei rhodesiense, UniProt Q95PM0) | inhibitor | – | pH 5.5, 37 °C, with: Z-Phe-Arg-AMC | – | kinact/Ki | 14400 M⁻¹ s⁻¹
Cc1cnc2nc1Nc1cccc(c1)COC/C=C/COCc1cc(ccc1OCCN1CCOCC1)N2 | Tyrosine-protein kinase ABL1 (ABL1, Homo sapiens, UniProt P00519, F317I) | binding | – | 0.1 µM | – | remaining binding | 99%
O=C1c2sc(-c3ccc(N4CCC(F)C4)nc3F)nc2CCN1c1cccnc1 (stereo not shown) | TAR DNA-binding protein 43, aggregated (TARDBP, Homo sapiens, UniProt Q13148) | radioligand binding | human, FTLD-TDP type B sarkosyl-insoluble extract | 142.86 nM | – | specific binding | 1.99 nM and 3.49 nM
CC1(C)C[C@@H](Nc2cccc(-c3sc(C(=O)O)c(OCC(=O)O)c3Cl)c2)CCN1S(=O)(=O)Cc1cccc(NC(=O)CN2CCC(c3ccc4c(c3)oc(=O)n4C3CCC(=O)NC3=O)CC2)c1 (stereo partly shown) | Tyrosine-protein phosphatase non-receptor type 2 (PTPN2, Homo sapiens, UniProt P17706, H30A/P33A/R35A) | degrader, bio-layer interferometry | – | 500 nM | higher = more binding | BLI binding response | 0.528 a.u.
C[Si](C)(C)C[C@H](CN)CC(=O)O | Histamine H2 receptor (HRH2, Homo sapiens, UniProt P25021) | cell-free assay, inhibitor | – | 250 µM | – | inhibition | -2%
CN(C)c1ccc(-n2cc(COC(=O)[C@@]3(C)C=C(C(=O)OC(C)(C)C)C(=O)CC3)nn2)cc1 | Mitogen-activated protein kinase 8 (MAPK8, Homo sapiens, UniProt P45983) | D-peptide binding, inhibitor, FP peptide displacement | – | 6.25 µM | lower is stronger displacement | fraction bound | 0.928
COc1cc(-c2cn(C)c(=O)c3cnccc23)cc(OC)c1CN(C)C | Bromodomain-containing protein 3, BD2 (BRD3, Homo sapiens, UniProt Q15059) | – | – | – | – | ΔTm | 0.3 °C
CCOC(=O)C(CC)(CCCSCCOCCOCCOCCOCCNc1ccc([N+](=O)[O-])c2nonc12)NC(=O)c1ccc(C2CC2)c(Cc2ccc(F)cc2)n1 (stereo not shown) | Cannabinoid receptor 2 (Cnr2, Mus musculus, UniProt P47936) | cAMP, agonist | – | – | – | Emax | 117%
CCC1(C)C(=O)N(c2cccc(CN3CCN(Cc4ccc(Br)cc4)CC3)c2)C1=O | Dipeptidyl peptidase 8 (Homo sapiens, UniProt Q6V1X1) | enzyme activity, inhibitor | – | 5 µM | – | activity vs control | 62%
COc1ccc(C(=O)c2c(C(=O)NCCCN(C)C)oc3ccc(Cl)cc3c2=O)cc1OC | Growth hormone secretagogue receptor type 1 (GHSR, Homo sapiens, UniProt Q92847) | Gαq activation, NanoBiT | HEK293S Gαq/11 knockout | – | – | Emax | 118 ± 9.8%
Cc1cc(NC(=O)[C@H](O)c2cc(F)cc(F)c2)ccc1-c1cnc(N)c(C(=O)NC(C)C)c1 | eIF-2-alpha kinase GCN2, C-terminal kinase domain (EIF2AK4, Homo sapiens, UniProt Q9P2K8, S808G) | binding, competition with immobilised ligand | – | 0.1 µM | – | remaining binding | 88%
CC(C)C[C@@H]1NC(=O)[C@H](Cc2ccccc2)NC(=O)[C@H](CO)NC(=O)[C@H](Cc2ccccc2)NC(=O)CSC[C@@H](C(=O)N(C)[C@@H](Cc2ccccc2)C(N)=O)NC(=O)[C@H](Cc2c[nH]c3ccccc23)NC(=O)[C@H](Cc2c[nH]cn2)NC(=O)[C@H](Cc2ccc(O)cc2)NC1=O | Stimulator of interferon genes protein (STING1, Homo sapiens, UniProt Q86WV6, H232R) | thermal stability, DSF | – | 50 µM | – | ΔTm | 7.75 °C

A few entries again:
Structure (SMILES) | target | test | test system | setting | how to read | endpoint | result
Cc1cc(NC(=O)[C@H](O)c2cc(F)cc(F)c2)ccc1-c1cnc(N)c(C(=O)NC(C)C)c1 | eIF-2-alpha kinase GCN2, C-terminal kinase domain (EIF2AK4, Homo sapiens, UniProt Q9P2K8, S808G) | binding, competition with immobilised ligand | – | 0.1 µM | – | remaining binding | 88%
CC(C)C[C@@H]1NC(=O)[C@H](Cc2ccccc2)NC(=O)[C@H](CO)NC(=O)[C@H](Cc2ccccc2)NC(=O)CSC[C@@H](C(=O)N(C)[C@@H](Cc2ccccc2)C(N)=O)NC(=O)[C@H](Cc2c[nH]c3ccccc23)NC(=O)[C@H](Cc2c[nH]cn2)NC(=O)[C@H](Cc2ccc(O)cc2)NC1=O | Stimulator of interferon genes protein (STING1, Homo sapiens, UniProt Q86WV6, H232R) | thermal stability, DSF | – | 50 µM | – | ΔTm | 7.75 °C
